Measurements gathered from unrelated publications.
Each line is one published result; not all experiments were run side by side. ± gives the spread as reported.
Sequence of UniProt P06873 (whole entry, looked up): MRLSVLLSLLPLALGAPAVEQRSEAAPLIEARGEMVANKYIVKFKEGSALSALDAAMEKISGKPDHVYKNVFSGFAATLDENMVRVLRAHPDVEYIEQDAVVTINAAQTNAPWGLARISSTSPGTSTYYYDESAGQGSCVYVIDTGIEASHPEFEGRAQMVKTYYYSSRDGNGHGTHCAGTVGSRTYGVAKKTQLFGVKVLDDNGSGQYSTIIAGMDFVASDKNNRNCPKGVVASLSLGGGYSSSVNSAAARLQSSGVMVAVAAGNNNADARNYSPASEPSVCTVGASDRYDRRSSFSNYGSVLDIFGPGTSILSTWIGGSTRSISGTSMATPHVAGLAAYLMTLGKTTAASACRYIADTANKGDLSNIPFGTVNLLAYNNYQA

CCCC[C@H](NC(C)=O)C(=O)N[C@@H](CO)C(=O)N[C@H](C(=O)N1CCC[C@H]1C(=O)N[C@@H](C)C(=O)N[C@@H](CCCNC(=N)N)C(=O)N[C@@H](CCCNC(=N)N)C(=O)N[C@@H](CCCNC(=N)N)C(=O)N[C@@H](CC(C)C)C(=O)N[C@@H](CCCC)C(=O)N[C@@H](CCCNC(=N)N)C(=O)N[C@@H](CC(=O)O)C(=O)N[C@@H](Cc1ccccc1)C(=O)N[C@@H](CCCCN)C(=O)N[C@@H](CCCNC(=N)N)C(=O)N[C@@H](CC(C)C)C(=O)N[C@@H](CCC(N)=O)C(N)=O)[C@@H](C)O  remaining intact peptide (Proteinase K (PROK, Engyodontium album, UniProt P06873); proteolytic stability, LC-MS; 25 µM, 20.5 min, pH 7.4): 41.7%
NCC(=O)NCCC(c1ccccc1)c1ccccc1  IC50 (Plasmodium falciparum; Dd2): 6.31 µM
COc1cccc(-c2n[nH]c(SCc3ccccn3)n2)c1OC  revertant colonies per plate (Salmonella typhimurium; Ames test, preincubation; TA1537; 0.13 mg/plate, with rat liver S9): 14
CC1(C)[C@H](C(=O)OCc2cccc(Oc3ccccc3)c2)[C@@H]1C=C(Cl)Cl  relative enzyme contribution (human microsomal CES2; IVIVE from expressed enzymes; human, 5 years old, expressed human CES2; 0.1 µM; relative to: total hepatic CLint in vivo): 4.37%
OCc1ncc2n1-c1ccc(Cl)cc1C(c1ccccc1F)=NC2  Cmax (CYP3A4; substrate; human, plasma; oral, 2 mg midazolam, day 1, cocktail with binimetinib and encorafenib): 50.5 ng/mL
[Cl-].[Cl-].[Pt+2].[Ru+2].c1ccc(-c2nc3cc4ccccc4cc3nc2-c2ccccn2)nc1.c1cnc2c(c1)ccc1cccnc12.c1cnc2c(c1)ccc1cccnc12  survival rate (Danio rerio; embryos; 60 µM, 12 h): 90 ± 2.8%
COc1cc2c(Oc3ccc4[nH]c(C)cc4c3F)ccnc2cc1OCC1(N)CC1  grade 1 or 2 mouth ulcer (paediatric recurrent refractory sarcoma; 8 mg): 0%
Cc1cc(C(=O)NC(C)(C)COc2cccc3c2C(N)=NS(=O)(=O)N3)cc(C)n1  revertant ratio (Salmonella typhimurium; Ames test, initial; TA1537; 1.50 µg/plate; relative to: solvent control): 0.8
CO[C@H]1C[C@@H]2CC[C@@H](C)[C@@](O)(O2)C(=O)C(=O)N2CCCC[C@H]2C(=O)O[C@H]([C@H](C)C[C@@H]2CC[C@@H](OC(=O)NCCOCCOCCOCCOCCOCCOCCOCCOCCC(=O)N3CCc4cc(Cn5nc(-c6ccc7oc(N)nc7c6)c6c(N)ncnc65)ccc4C3)[C@H](OC)C2)C[C@@H](O)[C@H](C)/C=C(\C)[C@@H](O)[C@@H](OC)C(=O)[C@H](C)C[C@H](C)/C=C/C=C/C=C/1C  nausea incidence (patients with advanced solid tumours; intravenous, 8 mg weekly, any grade): 56.3%
CC(C)CN1CCc2ccc(Br)cc21  IC50 (Plasmodium falciparum; Dd2): 10 µM
CC(=O)N1CCC(C(=O)N2CCN3C(=O)c4cc(-c5ccccc5)ccc4NC(=O)C3C2)CC1 (stereo not drawn)  fold increase in revertants (Salmonella typhimurium; TA1537; 158 µg/plate; relative to: vehicle): 0.7
O=c1ccc2ccccc2o1  chance response (NHEK; cell count; concentration not given, 1 h, pH2AX and pH3 panel): 0.01%

Repeated from above:
CC(=O)N1CCC(C(=O)N2CCN3C(=O)c4cc(-c5ccccc5)ccc4NC(=O)C3C2)CC1 (stereo not drawn)  fold increase in revertants (Salmonella typhimurium; TA1537; 158 µg/plate; relative to: vehicle): 0.7
O=c1ccc2ccccc2o1  chance response (NHEK; cell count; concentration not given, 1 h, pH2AX and pH3 panel): 0.01%
